Published values gathered from unrelated publications.
Protocols differ between the studies behind these lines. ± gives the spread as reported.

O=C(O)c1ccc(Nc2ncc3c(n2)-c2ccc(Cl)cc2C(c2c(F)cccc2F)=NC3)cc1
remaining activity (eEF-2K(h); kinase activity; 1 µM): 123%

NCCS(=O)(=O)O
normalised MST signal (Sodium- and chloride-dependent taurine transporter (SLC6A6, Homo sapiens, UniProt P31641, S402A); binding, microscale thermophoresis; 61 nM, room temperature, together with: 50 nM labelled protein; higher = more binding): 0.0243

O=C(O)[C@@H]1CCCN1c1ncnc2[nH]cnc12 (racemic)
fold enrichment (DNA mismatch repair protein Msh6 (Homo sapiens, UniProt P52701); binding, affinity selection mass spectrometry; baseline: other proteins in batch): 1.18

Cc1cc2c(cc1N1C(=O)c3cccc4c(Cl)ccc(c34)C1=O)n(C)c(=O)n2C
delta Tm (Transcription initiation factor TFIID subunit 1-like, BD2 (TAF1L, Homo sapiens, UniProt Q8IZX4); 10 µM): 1.6 °C

C=CC(=O)N1CCC(COCC(=O)N2CCN(c3nc(-c4cnc(N)nc4C(F)F)nc(N4CCOC[C@@H]4C)n3)CC2)CC1
remaining binding (Fibroblast growth factor receptor 3 (FGFR3, Homo sapiens, UniProt P22607, G697C); KINOMEscan; 1 µM): 100%

N[C@H](CNC(=O)c1ccc(-c2ccccc2Br)s1)C(=O)O
Hill slope (Glutamate receptor ionotropic, NMDA 1, with GluN2C (Grin1, Rattus norvegicus, UniProt P35439, V689I); rat; together with: glutamate 300 µM): 1.7

OC[C@H]1O[C@@H](Oc2cc3c(O)cc(O)cc3[o+]c2-c2cc(O)c(O)c(O)c2)[C@H](O)[C@@H](O)[C@@H]1O
Gibbs free energy (Albumin (ALB, Homo sapiens, UniProt P02768); binding, fluorescence quenching; 20 °C): -6.66 kcal/mol

CC(=O)N[C@H](C(=O)N1C[C@H](O)C[C@H]1C(=O)NCc1ccc(-c2scnc2C)cc1)C(C)(C)SCCCCCCNC(=O)C[C@@H]1N=C(c2ccc(Cl)cc2)c2c(sc(C)c2C)-n2c(C)nnc21
ΔH (von Hippel-Lindau disease tumor suppressor, with elongin B/C (VHL, Homo sapiens, UniProt P40337); ITC; 25 °C, binary): -6.7 ± 0.4 kcal/mol

CCc1cnn2c(NCc3ccc[n+]([O-])c3)cc(N3CCCC[C@H]3CCO)nc12
chemical shift change (Bromodomain-containing protein 4 (BRD4, Homo sapiens, UniProt O60885); 19F NMR, refers to: tyrosine 65; 47 µM; baseline: free protein): 0.043 ppm

CC1(F)CN(C(=O)Cn2c(=O)c(C(=O)NCc3ccc(Cl)cc3)cc3nc(N4CCN(CC(=O)O)C4=O)cnc32)C1
Hill slope (DNA polymerase catalytic subunit (Human cytomegalovirus, UniProt P08546); enzyme activity, inhibitor; retest): 1.1

CCCCCCCCCCOC(C)=O
relative fluorescence (uncharacterized protein (Spodoptera exigua, UniProt F1CEY0); binding, competitor, fluorescence displacement; 20 µM, pH 7.4, together with: 1-NPN 20 µM; baseline: 1-NPN alone): 40.1%

CC(=O)N[C@@H](CCCNC(=N)N)C(=O)N[C@@H](CCCNC(=N)N)C(=O)N[C@H]1CSSC[C@@H](C(=O)N[C@@H](CCCNC(=N)N)C(=O)N[C@@H](CCCNC(=N)N)C(N)=O)NC(=O)[C@H](C(C)C)NC(=O)[C@@H]2CCCN2C(=O)[C@H](CC(=O)O)NC(=O)[C@H](Cc2ccc(O)cc2)NC(=O)[C@H](CO)NC(=O)[C@H](CCC(C)C)NC(=O)[C@H](Cc2ccc(O)cc2)NC(=O)[C@H](CC(C)C)NC(=O)[C@@H]2CCCN2C1=O
lowest bound protein concentration (GTPase KRas, GDP-bound (KRAS, Homo sapiens, UniProt P01116, G12D); affinity selection mass spectrometry; mixture library 1, together with: protein titration up to 5 µM; lower is stronger binding): 5 µM

CN1CCN(c2cc(-c3ccncc3)c(-c3ccc4ccccc4c3)nn2)CC1
activation (C-C chemokine receptor type 1 (CCR1, Homo sapiens, UniProt P32246); agonist, FLIPR; 12.5 µM): -1.4%

O=C(Nc1cccnn1)N1CCC(=Cc2cccc(Oc3ccc(C(F)(F)F)cn3)c2)CC1
number of off-targets hit (human off-target panel; 50 µM): 37

CC[C@H](C)[C@@H]1NC(=O)[C@H](C)NC(=O)[C@H]([C@@H](C)CC)NC(=O)[C@H](CCC(N)=O)NC(=O)[C@H](C)NC(=O)[C@H](CCCNC(=N)N)NC(=O)[C@H](C(C)C)NC(=O)[C@H](CC(C)C)NC(=O)[C@H](CCC(=O)O)NC(=O)[C@H](CCCNC(=N)N)NC(=O)CNC(=O)[C@@H](NC(=O)[C@H](CC(C)C)NC(=O)[C@H](CCCCN)NC(=O)[C@@H](NC(=O)[C@@H](NC(=O)[C@H](CCC(=O)O)NC(=O)[C@H](CCC(=O)O)NC(=O)[C@H](CCSC)NC(=O)[C@H](Cc2c[nH]c3ccccc23)NC(=O)[C@H](CO)NC(=O)[C@@H](N)CC(=O)O)C(C)C)[C@@H](C)CC)CSSC[C@@H]2NC(=O)[C@@H](NC(=O)[C@H](CCCCN)NC(=O)[C@H](CC(N)=O)NC(=O)[C@H](C)NC(=O)[C@H](CC(C)C)NC(=O)[C@H](C)NC(=O)[C@H](CO)NC(=O)[C@H](Cc3ccc(O)cc3)NC(=O)[C@H](CC(C)C)NC(=O)[C@H](CCC(N)=O)NC(=O)c3ccc(-c4c5ccc(=[N+](C)C)cc-5oc5cc(N(C)C)ccc45)c(C(=O)[O-])c3)CSSC[C@H](NC(=O)CNC(=O)[C@H](C(C)C)NC(=O)[C@H](Cc3c[nH]cn3)NC2=O)C(=O)N[C@@H]([C@@H](C)O)C(=O)N[C@@H](CCCCN)C(=O)N[C@@H](CCCNC(=N)N)C(=O)N[C@@H](CO)C(=O)N[C@@H](CC(C)C)C(=O)N[C@@H](C)C(=O)N[C@@H](CCCNC(=N)N)C(=O)N[C@@H](Cc2ccccc2)C(=O)N[C@H](C(=O)O)CSSC[C@@H](C(=O)NCC(=O)N[C@@H](CCSC)C(=O)N[C@@H](CO)C(=O)N[C@H](C(=O)N[C@@H](Cc2c[nH]c3ccccc23)C(=O)N[C@@H](CO)C(=O)O)[C@@H](C)O)NC1=O
koff slow phase (Relaxin receptor 1 (RXFP1, Homo sapiens, UniProt Q9HBX9, F76A/Y80A); dissociation, NanoBRET; infinite dilution): 0.000954 s⁻¹
